Assay results pooled from the literature.
Parts stem from different laboratories: compare values within a part only. Values joined by “and” are separate records of one study, mostly repeats; a detail may differ.
Sequence of UniProt Q9HB89 (whole entry, looked up): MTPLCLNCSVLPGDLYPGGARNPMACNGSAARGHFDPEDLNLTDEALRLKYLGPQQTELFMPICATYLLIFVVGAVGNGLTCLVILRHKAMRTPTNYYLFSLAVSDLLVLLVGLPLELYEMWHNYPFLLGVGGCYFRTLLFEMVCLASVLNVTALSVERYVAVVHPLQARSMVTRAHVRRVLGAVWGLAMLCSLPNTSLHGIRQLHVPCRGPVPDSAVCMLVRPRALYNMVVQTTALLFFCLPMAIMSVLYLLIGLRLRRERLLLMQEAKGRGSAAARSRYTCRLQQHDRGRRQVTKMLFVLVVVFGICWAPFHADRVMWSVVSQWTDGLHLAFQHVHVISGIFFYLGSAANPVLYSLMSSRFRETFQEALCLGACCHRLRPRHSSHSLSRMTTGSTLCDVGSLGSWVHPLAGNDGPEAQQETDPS
Sequence of UniProt P43403 (whole entry, looked up): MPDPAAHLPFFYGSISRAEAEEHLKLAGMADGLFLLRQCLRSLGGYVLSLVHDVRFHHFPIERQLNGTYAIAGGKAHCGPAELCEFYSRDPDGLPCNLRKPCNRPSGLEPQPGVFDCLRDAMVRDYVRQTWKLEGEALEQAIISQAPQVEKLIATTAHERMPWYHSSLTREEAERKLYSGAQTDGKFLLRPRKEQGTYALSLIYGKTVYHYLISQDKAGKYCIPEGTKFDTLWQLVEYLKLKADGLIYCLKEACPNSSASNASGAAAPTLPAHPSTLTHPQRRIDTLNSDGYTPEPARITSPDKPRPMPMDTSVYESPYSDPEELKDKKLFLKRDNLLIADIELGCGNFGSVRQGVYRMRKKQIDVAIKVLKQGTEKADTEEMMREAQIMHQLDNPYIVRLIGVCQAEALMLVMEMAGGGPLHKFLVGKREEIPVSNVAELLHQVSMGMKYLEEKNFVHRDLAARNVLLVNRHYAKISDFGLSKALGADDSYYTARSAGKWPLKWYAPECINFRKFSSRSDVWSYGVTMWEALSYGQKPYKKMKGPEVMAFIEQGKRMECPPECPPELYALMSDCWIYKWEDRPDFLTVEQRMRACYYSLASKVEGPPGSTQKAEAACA
Sequence of UniProt Q9UHD2 (whole entry, looked up): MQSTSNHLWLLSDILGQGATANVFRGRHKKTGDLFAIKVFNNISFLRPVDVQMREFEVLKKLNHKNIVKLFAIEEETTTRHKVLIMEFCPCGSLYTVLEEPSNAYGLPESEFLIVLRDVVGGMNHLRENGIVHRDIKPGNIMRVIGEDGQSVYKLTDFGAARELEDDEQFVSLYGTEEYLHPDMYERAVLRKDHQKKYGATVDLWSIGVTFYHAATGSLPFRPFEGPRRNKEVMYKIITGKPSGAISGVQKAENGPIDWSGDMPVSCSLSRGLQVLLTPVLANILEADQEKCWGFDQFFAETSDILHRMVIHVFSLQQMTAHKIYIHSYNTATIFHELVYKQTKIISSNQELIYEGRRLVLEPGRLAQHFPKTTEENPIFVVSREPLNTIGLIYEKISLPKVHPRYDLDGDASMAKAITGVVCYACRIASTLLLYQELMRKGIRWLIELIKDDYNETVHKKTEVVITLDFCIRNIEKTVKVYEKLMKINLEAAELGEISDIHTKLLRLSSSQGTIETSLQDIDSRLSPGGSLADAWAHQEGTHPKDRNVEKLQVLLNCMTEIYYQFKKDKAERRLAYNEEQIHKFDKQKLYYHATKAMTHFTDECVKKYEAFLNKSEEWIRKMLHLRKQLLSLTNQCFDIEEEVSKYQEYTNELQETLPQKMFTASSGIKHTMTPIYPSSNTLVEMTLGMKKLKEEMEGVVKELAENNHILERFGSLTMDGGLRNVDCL
Sequence of UniProt Q9P296 (whole entry, looked up): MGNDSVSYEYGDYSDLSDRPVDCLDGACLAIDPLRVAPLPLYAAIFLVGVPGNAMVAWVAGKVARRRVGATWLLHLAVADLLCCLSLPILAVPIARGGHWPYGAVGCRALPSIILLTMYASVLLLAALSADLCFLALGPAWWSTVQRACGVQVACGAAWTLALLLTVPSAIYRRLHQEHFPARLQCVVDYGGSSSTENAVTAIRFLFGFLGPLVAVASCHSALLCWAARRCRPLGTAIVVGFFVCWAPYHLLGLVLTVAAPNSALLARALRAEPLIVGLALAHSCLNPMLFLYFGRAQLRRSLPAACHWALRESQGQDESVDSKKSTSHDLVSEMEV
Sequence of UniProt P22888 (whole entry, looked up): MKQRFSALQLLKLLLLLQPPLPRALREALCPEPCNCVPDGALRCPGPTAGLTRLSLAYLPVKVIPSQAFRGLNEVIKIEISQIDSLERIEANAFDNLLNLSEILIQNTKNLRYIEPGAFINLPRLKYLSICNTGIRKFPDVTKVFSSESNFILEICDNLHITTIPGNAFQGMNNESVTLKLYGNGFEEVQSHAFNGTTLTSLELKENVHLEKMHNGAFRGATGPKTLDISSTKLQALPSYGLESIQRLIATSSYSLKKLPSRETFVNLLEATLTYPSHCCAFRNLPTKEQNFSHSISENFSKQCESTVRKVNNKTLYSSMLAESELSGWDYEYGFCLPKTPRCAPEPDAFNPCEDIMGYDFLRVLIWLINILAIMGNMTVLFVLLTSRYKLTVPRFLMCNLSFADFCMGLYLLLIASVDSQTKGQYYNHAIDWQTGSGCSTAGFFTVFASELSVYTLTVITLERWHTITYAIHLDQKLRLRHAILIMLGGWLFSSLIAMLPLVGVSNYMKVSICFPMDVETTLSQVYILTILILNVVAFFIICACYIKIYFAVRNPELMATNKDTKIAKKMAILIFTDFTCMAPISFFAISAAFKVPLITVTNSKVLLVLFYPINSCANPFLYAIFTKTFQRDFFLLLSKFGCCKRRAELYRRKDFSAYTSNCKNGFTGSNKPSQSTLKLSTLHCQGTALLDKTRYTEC
Sequence of UniProt P46095 (whole entry, looked up): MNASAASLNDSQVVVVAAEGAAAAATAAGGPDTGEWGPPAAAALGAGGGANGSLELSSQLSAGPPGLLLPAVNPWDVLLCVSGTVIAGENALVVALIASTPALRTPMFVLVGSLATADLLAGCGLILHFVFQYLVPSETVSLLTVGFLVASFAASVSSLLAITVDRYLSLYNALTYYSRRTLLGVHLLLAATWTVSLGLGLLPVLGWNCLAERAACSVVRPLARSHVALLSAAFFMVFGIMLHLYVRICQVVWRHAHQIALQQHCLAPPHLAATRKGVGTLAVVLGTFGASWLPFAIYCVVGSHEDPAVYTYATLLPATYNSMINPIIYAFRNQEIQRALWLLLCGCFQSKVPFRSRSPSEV
Sequence of UniProt Q13304 (whole entry, looked up): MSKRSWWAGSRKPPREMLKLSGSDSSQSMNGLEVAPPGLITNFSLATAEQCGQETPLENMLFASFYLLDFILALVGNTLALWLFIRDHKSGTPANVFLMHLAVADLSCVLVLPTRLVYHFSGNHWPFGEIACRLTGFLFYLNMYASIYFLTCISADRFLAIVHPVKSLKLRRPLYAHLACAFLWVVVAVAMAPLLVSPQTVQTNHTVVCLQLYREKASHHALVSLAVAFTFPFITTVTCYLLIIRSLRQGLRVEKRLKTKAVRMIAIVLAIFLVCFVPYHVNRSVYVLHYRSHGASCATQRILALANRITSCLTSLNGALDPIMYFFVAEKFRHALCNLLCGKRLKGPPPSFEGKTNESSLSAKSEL
Sequence of UniProt Q9NSD7 (whole entry, looked up): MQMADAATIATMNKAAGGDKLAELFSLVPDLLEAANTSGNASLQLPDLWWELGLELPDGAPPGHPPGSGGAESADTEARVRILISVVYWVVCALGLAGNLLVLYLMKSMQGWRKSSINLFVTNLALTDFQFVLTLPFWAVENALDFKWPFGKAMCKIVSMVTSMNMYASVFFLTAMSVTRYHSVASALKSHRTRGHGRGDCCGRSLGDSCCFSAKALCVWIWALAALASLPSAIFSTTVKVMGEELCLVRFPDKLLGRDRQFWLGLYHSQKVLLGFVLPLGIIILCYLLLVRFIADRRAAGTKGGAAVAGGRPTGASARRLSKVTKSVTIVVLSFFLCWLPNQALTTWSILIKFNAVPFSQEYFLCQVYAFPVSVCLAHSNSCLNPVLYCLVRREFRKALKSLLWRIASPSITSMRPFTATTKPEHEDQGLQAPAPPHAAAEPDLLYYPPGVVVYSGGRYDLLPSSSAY
Sequence of UniProt Q96LB2 (whole entry, looked up): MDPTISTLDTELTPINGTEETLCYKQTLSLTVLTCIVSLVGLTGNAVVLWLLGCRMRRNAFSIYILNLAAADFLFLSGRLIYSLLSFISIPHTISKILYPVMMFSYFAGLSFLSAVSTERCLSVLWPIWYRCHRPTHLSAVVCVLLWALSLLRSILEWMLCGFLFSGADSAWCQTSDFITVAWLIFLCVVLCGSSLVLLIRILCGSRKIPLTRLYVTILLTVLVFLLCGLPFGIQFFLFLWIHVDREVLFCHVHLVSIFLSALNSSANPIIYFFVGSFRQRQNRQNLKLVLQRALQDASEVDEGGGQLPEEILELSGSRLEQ
Sequence of UniProt P32745 (whole entry, looked up): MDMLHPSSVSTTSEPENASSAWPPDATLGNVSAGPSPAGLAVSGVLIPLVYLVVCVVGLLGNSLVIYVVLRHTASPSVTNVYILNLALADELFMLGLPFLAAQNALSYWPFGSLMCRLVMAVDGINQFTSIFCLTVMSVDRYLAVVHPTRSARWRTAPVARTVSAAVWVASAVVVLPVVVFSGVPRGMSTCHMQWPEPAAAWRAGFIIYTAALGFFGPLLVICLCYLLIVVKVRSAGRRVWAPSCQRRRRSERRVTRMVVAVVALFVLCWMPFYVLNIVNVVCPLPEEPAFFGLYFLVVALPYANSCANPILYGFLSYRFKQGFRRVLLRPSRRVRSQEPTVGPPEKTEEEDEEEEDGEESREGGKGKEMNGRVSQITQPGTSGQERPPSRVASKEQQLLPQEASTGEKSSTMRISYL

Study 1
Compound: CNCc1ccccc1-c1csc([C@H](C)Nc2nc(C)nc3cc(OC)c(OC)cc23)c1
Effect on: cell-free assay
Method: competition with immobilised ligand
Tested at: 1 µM
target	remaining binding
Phosphatidylinositol 4,5-bisphosphate 3-kinase catalytic subunit gamma isoform (PIK3CG, Homo sapiens, UniProt P48736)	73%
Glycogen synthase kinase-3 alpha (GSK3A, Homo sapiens, UniProt P49840)	100%
Atypical kinase COQ8B, mitochondrial (COQ8B, Homo sapiens, UniProt Q96D53)	93%
Cyclin-dependent kinase-like 5 (CDKL5, Homo sapiens, UniProt O76039)	87%
Peripheral plasma membrane protein CASK (CASK, Homo sapiens, UniProt O14936)	71%
SRSF protein kinase 2 (SRPK2, Homo sapiens, UniProt P78362)	52%
Tyrosine-protein kinase ZAP-70 (ZAP70, Homo sapiens, UniProt P43403)	100%
Mitogen-activated protein kinase 4 (MAPK4, Homo sapiens, UniProt P31152)	95%
Protein kinase C iota type (PRKCI, Homo sapiens, UniProt P41743)	87%
Phosphatidylinositol 4,5-bisphosphate 3-kinase catalytic subunit alpha isoform (PIK3CA, Homo sapiens, UniProt P42336, E545K)	75%
Hepatocyte growth factor receptor (MET, Homo sapiens, UniProt P08581, M1250T)	96%
Serine/threonine-protein kinase WNK1 (WNK1, Homo sapiens, UniProt Q9H4A3)	100%
Serine/threonine-protein kinase TBK1 (TBK1, Homo sapiens, UniProt Q9UHD2)	100%

Study 2
Cell line: mouse MPNST tumor cells
Method: high-content immunofluorescence imaging
Refers to: nuclear SOX9
Tested at: 10 µM
Time: 12 h
Notes: mean of 2 replicates
Reference: DMSO control
Reading: higher = more nuclear SOX9
SMILES	nuclear SOX9 intensity
COc1cccc(N(C)C(=S)Oc2ccc3c(c2)CCCC3)n1	116 % of DMSO
c1ccc([C@H]2CN3CCSC3=N2)cc1	97.5 % of DMSO
COc1ccc2c(c1)c(CC(=O)O)c(C)n2C(=O)c1ccc(Cl)cc1	97.4 % of DMSO
NCCCCCCNS(=O)(=O)c1cccc2c(Cl)cccc12	100 % of DMSO
NS(=O)(=O)c1cc2c(cc1Cl)NC(C1CC3C=CC1C3)NS2(=O)=O (stereo not shown)	98.3 % of DMSO
COc1ccc(CC2NCCc3c2[nH]c2ccc(C)cc32)c(Cl)c1OC (stereo not shown)	168 % of DMSO
Cc1cc(CN2CCN(c3c(Br)cnc4nc(-c5ccc(N6CCN(C)CC6)cc5)[nH]c34)CC2)no1	166 % of DMSO
O=C(NCC(=O)N1CCCC1)Nc1ccc2cnccc2c1	99.7 % of DMSO and 85.1 % of DMSO
Clc1ccc(C(Cn2ccnc2)OCc2c(Cl)cccc2Cl)c(Cl)c1 (stereo not shown)	109 % of DMSO
CCn1c(=O)[nH]c2cc(Cl)c(Cl)cc21	106 % of DMSO
FC(F)(F)c1ccc(CNc2ccc(Cc3c[nH]c4ncccc34)cn2)cc1	112 % of DMSO
Cc1onc(-c2c(Cl)cccc2Cl)c1C(=O)N[C@@H]1C(=O)N2[C@@H]1SC(C)(C)[C@@H]2C(=O)O	90.3 % of DMSO
CN(C)C(=N)NC(=N)N	95.7 % of DMSO and 104 % of DMSO and 94.7 % of DMSO
Nc1nc(/C(=C/CC(=O)O)C(=O)N[C@@H]2C(=O)N3C(C(=O)O)=CCS[C@H]23)cs1	95 % of DMSO

Study 3
Target: Diamine acetyltransferase 1 (Homo sapiens, UniProt P21673)
Action: inhibitor
Tested at: 10 µM
Reference: control
Residues (P21673 1-171): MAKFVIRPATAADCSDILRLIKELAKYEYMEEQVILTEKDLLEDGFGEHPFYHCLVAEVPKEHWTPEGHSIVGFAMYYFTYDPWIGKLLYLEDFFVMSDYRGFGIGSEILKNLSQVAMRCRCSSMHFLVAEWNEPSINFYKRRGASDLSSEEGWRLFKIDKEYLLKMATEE
SMILES	remaining activity [%]
O=c1ccc2ccc(O)cc2o1	105
CC(C)(O)[C@@H]1CC[C@](C)([C@H]2[C@@H](O)C[C@@]3(C)[C@@H]4C[C@H](O)[C@H]5C(C)(C)[C@@H](O)CC[C@@]56C[C@@]46CC[C@]23C)O1	85.5
COc1ccc(-c2oc3cc(O)cc(O)c3c(=O)c2O)cc1	81.4
O=C1CCC(=O)O1	95.1
Oc1cc(O)c2c(c1)O[C@H](c1cc(O)c(O)c(O)c1)[C@@H](O)C2	96
CC(C)=C1CC[C@@H](C)CC1=O	92.6
CC1(C)CC(=O)CC(C)(C)N1	87.9
COc1cc(C(=O)O)ccc1O	98.4
COc1cc(CCC(C)=O)ccc1O	90.9
O[C@@H]1[C@@H](O)[C@H](OC/C=C/c2ccccc2)O[C@H](CO[C@@H]2OC[C@H](O)[C@H](O)[C@H]2O)[C@H]1O	89.8
CC(=O)O[C@H]1CC[C@]2(C)C3=C(CC[C@H]2C1(C)C)[C@]1(C)CC[C@H]([C@@H](CCC=C(C)C)C(=O)O)[C@@]1(C)CC3	113
O=C(O)c1cc(O)ccc1O	91
C/C(=C\C(=O)CC(C)C(=O)O)[C@H]1CC(=O)[C@@]2(C)C3=C(C(=O)C[C@]12C)[C@@]1(C)CCC(=O)C(C)(C)[C@@H]1C[C@@H]3O (stereo partly shown)	103

Study 4
Compound: NC(N)=NC(=O)c1nc(Cl)c(N2CCCCCC2)nc1N
Effect on: β-arrestin recruitment
Action: agonist
Method: PRESTO-Tango
Tested at: 10 µM
Reference: untreated
target	fold over basal
Somatostatin receptor type 3 (SSTR3, Homo sapiens, UniProt P32745)	1.19 fold
P2Y purinoceptor 2 (P2RY2, Homo sapiens, UniProt P41231)	0.51
Mas-related G-protein coupled receptor member X1 (MRGPRX1, Homo sapiens, UniProt Q96LB2)	1.05
P2Y purinoceptor 13 (P2RY13, Homo sapiens, UniProt Q9BPV8)	1.05
G-protein coupled receptor 87 (GPR87, Homo sapiens, UniProt Q9BY21)	0.98
G-protein coupled receptor 6 (Homo sapiens, UniProt P46095)	1.38
Uracil nucleotide/cysteinyl leukotriene receptor (GPR17, Homo sapiens, UniProt Q13304)	0.69
Trace amine-associated receptor 8 (TAAR8, Homo sapiens, UniProt Q969N4)	0.78 fold
C-C chemokine receptor type 4 (CCR4, Homo sapiens, UniProt P51679)	1.53
Lutropin-choriogonadotropic hormone receptor (LHCGR, Homo sapiens, UniProt P22888)	0.5 fold
Neuromedin-U receptor 1 (NMUR1, Homo sapiens, UniProt Q9HB89)	0.77
Melatonin-related receptor (GPR50, Homo sapiens, UniProt Q13585)	0.47
C5a anaphylatoxin chemotactic receptor 2 (C5AR2, Homo sapiens, UniProt Q9P296)	1.23
Proto-oncogene Mas (Homo sapiens, UniProt P04201)	1.39
Relaxin-3 receptor 1 (RXFP3, Homo sapiens, UniProt Q9NSD7)	0.91

Repeated from above (study 4):
target	fold over basal
Melatonin-related receptor (GPR50, Homo sapiens, UniProt Q13585)	0.47
Lutropin-choriogonadotropic hormone receptor (LHCGR, Homo sapiens, UniProt P22888)	0.5 fold
Mas-related G-protein coupled receptor member X1 (MRGPRX1, Homo sapiens, UniProt Q96LB2)	1.05
G-protein coupled receptor 87 (GPR87, Homo sapiens, UniProt Q9BY21)	0.98
Neuromedin-U receptor 1 (NMUR1, Homo sapiens, UniProt Q9HB89)	0.77
